Results pooled from the literature.
Compare with care: the assays were run in different laboratories. ± gives the spread as reported.
Target: Cytochrome P450 2C19 (CYP2C19, Homo sapiens, UniProt P33261)
Chain of UniProt P33261 (whole entry, looked up): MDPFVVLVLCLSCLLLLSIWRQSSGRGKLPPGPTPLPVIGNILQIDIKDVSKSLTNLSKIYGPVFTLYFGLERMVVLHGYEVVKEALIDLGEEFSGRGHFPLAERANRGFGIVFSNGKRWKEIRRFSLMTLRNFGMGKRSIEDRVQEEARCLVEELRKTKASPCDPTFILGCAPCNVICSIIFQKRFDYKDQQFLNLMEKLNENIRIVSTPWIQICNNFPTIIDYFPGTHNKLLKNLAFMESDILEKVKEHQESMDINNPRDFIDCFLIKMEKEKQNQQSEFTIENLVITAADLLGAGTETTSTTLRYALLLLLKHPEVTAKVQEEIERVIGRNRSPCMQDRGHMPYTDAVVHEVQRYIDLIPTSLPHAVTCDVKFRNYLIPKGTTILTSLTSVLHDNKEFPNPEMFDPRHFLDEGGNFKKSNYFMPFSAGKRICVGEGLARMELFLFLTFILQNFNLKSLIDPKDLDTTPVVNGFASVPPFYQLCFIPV

C[C@H]1CN(C2COC2)CCN1c1ccc(Nc2cc(-c3ccnc(N4CCn5c(cc6c5CC(C)(C)C6)C4=O)c3CO)cn(C)c2=O)nc1 — remaining compound (substrate; recombinant enzyme; 1 µM, 60 min): 94.8 ± 8.4%
CC(C)=CCc1c(O)cc2c(c1O)C(=O)C[C@@H](c1ccc(O)cc1)O2 — inhibition (10 µM, pH 7.4): 14.3 ± 0.1%
C=CC(=O)Nc1cc(Nc2nccc(-c3cn(C)c4ccccc34)n2)c(OCC(F)(F)F)nc1N(C)CCNC — intrinsic clearance (substrate depletion; recombinant human CYP; 1 µM): 0.36 µL/min/pmol
COc1cc(O)c(CC=C(C)C)c2c1C(=O)CC(c1ccc(O)cc1)O2 (stereo not drawn) — inhibition (inhibitor; human liver microsomes; 10 µM, pH 7.4, added: (S)-mephenytoin): 96.3 ± 1.5%
COc1ccc2nc([S+]([O-])Cc3ncc(CO)c(OC)c3C)[nH]c2c1 (stereo not drawn) — Cmax (substrate; human, plasma; oral, 20 mg, day 1, cocktail with binimetinib and encorafenib): 90.4 ng/mL
COc1ccc2nc([S+]([O-])Cc3ncc(CO)c(OC)c3C)[nH]c2c1 (stereo not drawn) — AUC(0-12 h) (human healthy subjects, plasma; oral, dose not given, alone, geometric mean, added: midazolam): 325 ng·h/mL
COc1cc(O)c(CC=C(C)C)c(O)c1C(=O)/C=C/c1ccc(O)cc1 — inhibition (enzyme activity, inhibitor; human liver microsomes; 1 µM, pH 7.4, added: (S)-mephenytoin): < 10%
OCc1ccc(-c2nn(Cc3ccccc3)c3ccccc23)o1 — half-life (substrate; recombinant human enzyme): 3.6 min
COc1ccc2[nH]c([S+]([O-])Cc3ncc(C)c(OC)c3C)nc2c1 (stereo not drawn) — geometric LS mean ratio of Cmax (human, plasma; oral, 20 mg, Day 1, added: single dose encorafenib and binimetinib; baseline: Day -7): 1.32
COc1ccc2[nH]c([S+]([O-])Cc3ncc(C)c(OC)c3C)nc2c1 (stereo not drawn) — half-life (measured: 5-hydroxyomeprazole; human healthy subjects, plasma; oral, alone, geometric mean, added: midazolam): 54 min
N#C[C@H](C[C@@H]1CCCNC1=O)NC(=O)[C@H](CC1CC1)NC(=O)c1cc2cccc(Cl)c2[nH]1 — fraction metabolised (ISEF abundance scaling; 2 µM, pH 7.4): < 1%
Cc1cccc(F)c1N1CCC(N2Cc3cn(CC(C)(F)F)nc3N(Cc3ccccc3C(F)(F)F)C2=O)CC1 — Ki (enzyme activity, inhibitor; added: (S)-mephenytoin 4'-hydroxylation): 4.3 µM
CC(C)=CCc1c(O)cc(O)c2c1O[C@H](c1ccc(O)cc1)CC2=O — inhibition (10 µM, pH 7.4): > 90%
C=CC(=O)N(C)CCOc1c(N)ncnc1-c1cc(F)cc(NC(=O)c2ccc(C3CC3)cc2F)c1C — fraction unbound in microsomal incubation (recombinant enzyme incubation): 0.94
C[C@@H](c1ccc2nccn2c1)n1nnc2ncc(-c3cnn(C)c3)nc21 — time-dependent inhibition (human liver microsomes; 10 and 50 µM, 30 min preincubation, pH 7.4, added: ± NADPH): < 20%

Some of these lines once more:
COc1ccc2[nH]c([S+]([O-])Cc3ncc(C)c(OC)c3C)nc2c1 (stereo not drawn) — half-life (measured: 5-hydroxyomeprazole; human healthy subjects, plasma; oral, alone, geometric mean, added: midazolam): 54 min
N#C[C@H](C[C@@H]1CCCNC1=O)NC(=O)[C@H](CC1CC1)NC(=O)c1cc2cccc(Cl)c2[nH]1 — fraction metabolised (ISEF abundance scaling; 2 µM, pH 7.4): < 1%
